Assay results of several laboratories.
Protocols differ between the studies behind these lines.
UniProt Q92630, sequence (whole entry, looked up): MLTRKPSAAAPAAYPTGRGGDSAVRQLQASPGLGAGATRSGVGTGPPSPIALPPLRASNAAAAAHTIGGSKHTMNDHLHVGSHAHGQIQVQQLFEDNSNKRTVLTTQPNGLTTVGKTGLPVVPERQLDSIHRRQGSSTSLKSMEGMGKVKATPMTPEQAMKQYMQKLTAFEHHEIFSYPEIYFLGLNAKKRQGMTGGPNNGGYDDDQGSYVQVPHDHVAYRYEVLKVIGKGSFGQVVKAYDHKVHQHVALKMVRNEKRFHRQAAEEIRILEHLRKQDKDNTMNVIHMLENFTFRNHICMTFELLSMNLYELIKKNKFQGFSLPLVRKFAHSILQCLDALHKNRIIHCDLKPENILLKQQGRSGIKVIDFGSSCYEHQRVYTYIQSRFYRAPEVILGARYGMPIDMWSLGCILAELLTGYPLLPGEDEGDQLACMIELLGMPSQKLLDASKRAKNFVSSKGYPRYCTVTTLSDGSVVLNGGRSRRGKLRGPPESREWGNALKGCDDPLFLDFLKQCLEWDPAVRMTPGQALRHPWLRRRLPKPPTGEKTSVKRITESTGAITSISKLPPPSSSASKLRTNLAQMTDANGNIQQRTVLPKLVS
UniProt Q08210, sequence (whole entry, looked up): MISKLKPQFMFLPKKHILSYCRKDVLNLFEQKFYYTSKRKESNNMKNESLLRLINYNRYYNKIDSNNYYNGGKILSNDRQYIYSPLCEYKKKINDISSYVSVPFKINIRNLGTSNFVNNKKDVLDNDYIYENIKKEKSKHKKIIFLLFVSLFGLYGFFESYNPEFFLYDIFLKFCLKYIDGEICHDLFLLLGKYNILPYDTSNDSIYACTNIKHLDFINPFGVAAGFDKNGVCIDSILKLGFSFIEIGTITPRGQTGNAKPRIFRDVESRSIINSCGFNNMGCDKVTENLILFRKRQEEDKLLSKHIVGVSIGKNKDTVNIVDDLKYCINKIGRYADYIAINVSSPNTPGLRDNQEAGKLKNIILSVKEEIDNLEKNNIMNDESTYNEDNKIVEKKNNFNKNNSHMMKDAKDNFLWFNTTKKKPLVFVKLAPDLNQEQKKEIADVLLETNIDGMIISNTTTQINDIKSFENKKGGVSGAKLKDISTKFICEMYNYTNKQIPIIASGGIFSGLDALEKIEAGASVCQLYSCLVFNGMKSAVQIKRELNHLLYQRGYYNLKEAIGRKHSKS

Structure (SMILES)	target or system	assay	system	conditions	endpoint	result
Nc1c(C(=O)N2CC(F)(F)C2)sc2nc(-c3ccccc3)ccc12	Mycobacterium tuberculosis	microbial growth	H37RV	–	IC50	> 100 µM
O=c1cc(CSc2ccc(N=Cc3ccc(F)cc3)cc2)occ1O	–	DPPH scavenging, absorbance	–	30 min	IC50	43.7 µM
COC(=O)c1cc(-c2cccc(NC(=O)Nc3cccc(Cl)c3Cl)c2)on1	Mycolicibacterium fortuitum	microbial growth, broth dilution	ATCC6841	48 h	MIC	> 64 µg/mL
COc1cnc(OC)n2nc(NS(=O)(=O)c3c(OCC(F)F)cccc3C(F)(F)F)nc12	L02	cell growth or viability, CCK-8	–	3.13 µM, 72 h	inhibition	0%
COC(=O)c1cc(-c2cccc(NC(=S)Nc3ccccc3Cl)c2)on1	Mycobacteroides chelonae	microbial growth, broth dilution	ATCC35752	48 h	MIC	> 64 µg/mL
Nc1c(C(=O)NCc2ccccc2)sc2ncccc12	Mycobacterium tuberculosis	microbial growth	H37RV	–	IC50	> 100 µM
Cc1nn(C)cc1-c1nc2c(N3CCN(Cc4ccc(Cl)cc4)CC3)c(Cl)cnc2[nH]1	Tyrosine-protein kinase ABL1, non-phosphorylated (ABL1, Homo sapiens, UniProt P00519, T315I)	binding, competition with immobilised ligand	–	1 µM	remaining binding	100%
N.N.[Cl][Pt][Cl]	MOLT-4	cell growth or viability, ATP luminescence	–	72 h	IC50	0.89 µM
COC(=O)c1cc(-c2cccc(NC(=O)Nc3ccc(Cl)c(Cl)c3)c2)on1	Mycolicibacterium fortuitum	microbial growth, broth dilution	ATCC6841	48 h	MIC	> 64 µg/mL
Cc1ccc(C(=O)Nc2ccc(F)c(F)c2F)cc1S(=O)(=O)N1CCCCC1	Dihydroorotate dehydrogenase (quinone), mitochondrial (PFF0160c, Plasmodium falciparum, UniProt Q08210)	enzyme activity, inhibitor, absorbance	–	–	IC50	0.708 µM
O=c1cc(CSc2ccc(N=Cc3ccccc3Br)cc2)occ1O	–	DPPH scavenging, absorbance	–	30 min	IC50	66.9 µM
Nc1ncc(-c2nc(N3CCOCC3)nc(N3CCOCC3)n2)c(C(F)F)n1	Tyrosine-protein kinase ABL1, phosphorylated (ABL1, Homo sapiens, UniProt P00519, M351T)	binding, competition with immobilised ligand	–	10 µM	remaining binding	68%
[2H]c1c([2H])c([C@]2([2H])CCCN2C(=O)C(C)(C)Oc2ccc3cn[nH]c3c2)c([2H])c([2H])c1C([2H])([2H])[2H]	Dual specificity tyrosine-phosphorylation-regulated kinase 2 (DYRK2, Homo sapiens, UniProt Q92630)	binding, competition with immobilised ligand	–	1 µM	remaining binding	93%

Some of these lines once more:
Structure (SMILES)	target or system	assay	system	conditions	endpoint	result
Nc1c(C(=O)NCc2ccccc2)sc2ncccc12	Mycobacterium tuberculosis	microbial growth	H37RV	–	IC50	> 100 µM
Cc1nn(C)cc1-c1nc2c(N3CCN(Cc4ccc(Cl)cc4)CC3)c(Cl)cnc2[nH]1	Tyrosine-protein kinase ABL1, non-phosphorylated (ABL1, Homo sapiens, UniProt P00519, T315I)	binding, competition with immobilised ligand	–	1 µM	remaining binding	100%
